Experimental data collected from several papers.
A part holds a random share of what one study measured. Changes are numbered by the printed parent chain.

Set 1 — method: DHFR PCA, deep sequencing; sample: yeast; together with: (+)-ABA 0.39 µM; relative to: wild-type fitted maximum; reading: higher = stronger binding
Target: ABI1, truncated, D143A, DHFR fusion (Arabidopsis thaliana)
Setting: methotrexate growth selection, single substitutions
Starting sequence: PYL1, truncated, DHFR fusion (Arabidopsis thaliana); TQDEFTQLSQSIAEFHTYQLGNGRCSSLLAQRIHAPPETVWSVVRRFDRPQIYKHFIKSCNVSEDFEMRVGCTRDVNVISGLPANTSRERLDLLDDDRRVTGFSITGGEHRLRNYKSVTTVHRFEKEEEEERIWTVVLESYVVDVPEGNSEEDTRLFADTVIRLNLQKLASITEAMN; partner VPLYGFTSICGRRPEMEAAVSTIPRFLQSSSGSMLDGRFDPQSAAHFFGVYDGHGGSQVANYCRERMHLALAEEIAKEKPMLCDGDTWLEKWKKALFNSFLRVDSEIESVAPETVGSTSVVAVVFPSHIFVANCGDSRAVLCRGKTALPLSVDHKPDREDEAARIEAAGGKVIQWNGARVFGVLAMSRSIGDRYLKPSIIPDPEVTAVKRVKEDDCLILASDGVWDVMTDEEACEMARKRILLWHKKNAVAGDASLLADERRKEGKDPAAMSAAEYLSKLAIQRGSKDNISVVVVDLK
| Substitution | relative binding score |
| --- | --- |
| Q7N | 35% |
| F47Y | -3.29% |
| E174R | -4.4% |
| F56Y | 9.72% |
| V142T | 17.2% |
| T101H | -5.61% |
| L94F | 48.9% |
| L156T | 53% |
| R90V | 21.3% |
| K58N | -3.51% |
| D92A | -7.58% |
| E130V | 36% |
| E147V | 16.8% |
| L94P | -2.13% |
| S117K | -0.498% |
| H55Q | 82.5% |
| R163P | 6.74% |
| A35W | -11.7% |
| R99Q | 29.6% |

Set 2 — method: RNA Bind-n-Seq; molecule type: RNA; sample: in vitro; concentration: not given; relative to: input RNA pool; reading: higher = stronger binding
Target: RING finger protein unkempt homolog, zinc fingers 1-6, GST-SBP tag (UNK, Homo sapiens, UniProt Q9C0B0, residues 30-357)
Setting: RNA with constant flanks, human and mouse sites, ends assumed
Target sequence (chain): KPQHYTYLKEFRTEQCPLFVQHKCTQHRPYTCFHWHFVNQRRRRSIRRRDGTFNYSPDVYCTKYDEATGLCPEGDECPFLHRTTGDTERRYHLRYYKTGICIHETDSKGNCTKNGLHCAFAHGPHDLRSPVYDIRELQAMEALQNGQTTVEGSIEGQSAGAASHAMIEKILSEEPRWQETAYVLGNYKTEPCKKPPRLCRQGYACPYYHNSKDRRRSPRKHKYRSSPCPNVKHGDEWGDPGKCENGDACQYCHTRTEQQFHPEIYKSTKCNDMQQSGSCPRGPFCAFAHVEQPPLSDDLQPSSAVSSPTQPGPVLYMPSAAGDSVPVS
| Oligonucleotide | bound/input enrichment |
| --- | --- |
| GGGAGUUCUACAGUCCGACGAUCUGCUGCAUUUCCAGGGAUGGUGUUUAACACCGCUUCCUCCAGCUCCCUUUUCUAAGAAAGAAUAAAUGGAGUUCUGCUUUUUAUGAAAGGGUCUUUGGUUUUCAGUGUCAACACUGAGAACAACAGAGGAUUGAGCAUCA | 0.0513 ratio |
| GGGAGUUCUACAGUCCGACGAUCAUGAAGGAGGCAUUUGGCUUUAUUGAAAGAGGUGAUGUUGUAAAAGAGAUAUUCUUUCACUAUAGUGAAUUUAAGGGUGACUUAGAAACCUUACAGCCUGGCGAUGAUGUGGAAUUCACACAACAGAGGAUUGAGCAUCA | 0.31 ratio |
| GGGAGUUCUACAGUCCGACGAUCAAGAUGCUUCAAAGUAUUAUUAAAAACAUAUGGAUCCCCAUGAAGCCCUACUACACCAAAGUUUACCAGGAGAUUUGGAUAGGAAUGGGGCUGAUGGGCUUCAUCGUUUAUAAAAUCCGGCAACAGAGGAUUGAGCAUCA | 0.241 ratio |
| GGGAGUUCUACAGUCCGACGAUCUGUGCACGCACACUUAAGUGCAUGCAUGGAAGGUGCCUGGGCUGUCUUUGCUAUAUGUAAAUAGGGCCACUGGAUCUUUAUUUUUGAUUAAUUUGUUCUGAUUUUUUUUUUGGUUUGUUUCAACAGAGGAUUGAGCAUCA | 2.25 ratio |
| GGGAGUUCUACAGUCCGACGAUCCGGGGCGCUCCUUCACGCCGUAGGCAAGCGGGGCGGCGGCUGCGGUACCUGCCCACCGGGAGCUUUCCCUUCCUUCUCCUGCUGCUGCUGCUCUGCAUCCAGCUCGGGGGAGGACAGAAGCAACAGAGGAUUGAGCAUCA | 0.171 ratio |
| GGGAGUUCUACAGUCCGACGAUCAAUGCAUGGAUGGAGACAGAAGCUGUGAACUACCAUGACGAAACAGGUGAGAUAAUGGAUAAUCUUAUGCUAGAAGCUGGAGAUGAUGCUGGAAAAGUGAAAUGGGUGGACAUCAAUGAUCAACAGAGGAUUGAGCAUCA | 0.355 ratio |
| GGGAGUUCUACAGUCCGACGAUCACUGAUUACAAAUCACCAUCAGCUGAUGACAAAGGGCAGCCAUCUGACCCCAGCCAAUCUAGUUUCACAGGUCUUUUGAAGAGAAUGGAACAAAGAGGUGUUAUAAAAAGGGUGACAUUACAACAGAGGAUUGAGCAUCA | 0.167 ratio |
| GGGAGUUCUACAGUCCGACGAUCGCAGAGCUUGAUACACUGAACGAAGACUCCUACAAAGACAGCACCCUCAUCAUGCAGUUGCUUAGAGACAACUUAACAUUAUGGACAUCAGACAGUGCAGGAGAAGAAUGUGAUGCAGCACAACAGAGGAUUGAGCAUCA | 0.348 ratio |
| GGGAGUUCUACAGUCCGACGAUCAUUCUUGAUCAAUGUGACAGGUAACUGCCCAGCUCUGUGUAUAAGGCAAACAUAGACUCUUGUUUUCCUCUUUCCUAUUCAUAUCAUUCAGUGAUGUUGUUAUUAAAACAGUAUUUCAUCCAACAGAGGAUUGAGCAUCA | 0.168 ratio |
| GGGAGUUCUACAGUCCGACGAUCACCAGUGAACCUGUACACAUUUUAAAGAGGUCUUUUGCAAGAACUGUCUCAGUGGAAUGUUUUGAGUCAUUGUUGAGUAUUCUUCACUGGAGCUGGACCACCUUAGUCUUAGGAGUUGAACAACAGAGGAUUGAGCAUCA | 4.46 ratio |
| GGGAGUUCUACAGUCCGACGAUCUGCUAGAAAACACAUUGUACUGUGCUUUUUCUGGAAUUCAGUAUAAUGGCAUCACUGCCUGUUUUUCACAUCUUUUGUUUCCUGUUCAUUUUAAGGAAACCUACUAAAUCCAGUUAAUAUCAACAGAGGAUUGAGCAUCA | 0.409 ratio |

Set 3 — method: RNA Bind-n-Seq; molecule type: RNA; sample: in vitro; concentration: 200 nM; setting: whole 134-nt RNA, ends assumed; together with: 150 mM LiCl; relative to: input library; reading: higher = stronger binding; library: 7-deaza-guanosine replaces G
Target: Fragile X messenger ribonucleoprotein 1, C-terminal low-complexity region (Fmr1, Mus musculus, UniProt P35922)
| Oligonucleotide | log2 enrichment |
| --- | --- |
| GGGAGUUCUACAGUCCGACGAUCCAAGUCCUGUGCUACACAUCGUAUGUACCGAAUCGGUUUUGGUUUUGGUUUUGGGAAAGUAUUAUGUUACGCCGUUCGGAUCUGCACUUCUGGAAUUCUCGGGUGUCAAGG | -1.42 |
| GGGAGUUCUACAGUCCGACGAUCACCAUGCAGGUGGGCAUCUUUGGGAAGUGGGGCAAGAGGGGGAUAGGGAGGGGGGUAACACUUUGGGAACAGGUGGUCCCAGGUCGUUUCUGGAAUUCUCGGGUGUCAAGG | 1.36 |
| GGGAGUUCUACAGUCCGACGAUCCAAGUCCUGUGCUACACAUCGUAUGUACCGAAUCGGAAAAAAAGGAAAGGUUUGGAAAGUAUUAUGUUACGCCGUUCGGAUCUGCACUUCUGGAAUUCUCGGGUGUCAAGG | -2.52 |
| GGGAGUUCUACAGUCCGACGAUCUCCUGUGCUACACAUCGUAUGUACCGAAUCGGGUUUGGGAAAAAAAGGGUUUUUUUGGGAAAGUAUUAUGUUACGCCGUUCGGAUCUGCAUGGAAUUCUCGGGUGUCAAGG | -1.38 |
| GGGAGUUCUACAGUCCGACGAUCAGUCCUGUGCUACACAUCGUAUGUACCGAAUCGGGUUUGGGUUUGGGAAAAAAAGGGAAAGUAUUAUGUUACGCCGUUCGGAUCUGCACUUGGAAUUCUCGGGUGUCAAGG | -1.83 |
| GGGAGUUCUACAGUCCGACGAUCAAGUCCUGUGCUACACAUCGUAUGUACCGAAUCGGGGAAAAAGGGGAGGGGAGGGGAAAGUAUUAUGUUACGCCGUUCGGAUCUGCACUUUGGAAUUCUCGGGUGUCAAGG | 0.595 |
| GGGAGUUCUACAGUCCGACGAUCGCAGGAAGUAAAAACAAAUGGAAAUGCUUCGAAUAGUGGCAGGGGUGGGGGUUGCUAAGGAAAGGGUGGGAUGGGAGUGGGUAAAGAGUUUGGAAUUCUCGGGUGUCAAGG | 1.41 |
| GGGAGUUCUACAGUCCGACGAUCUCCUCAAGUCCUGUGCUACACAUCGUAUGUACCGAAUCGGAGGGAGGGGAGGAAAGUAUUAUGUUACGCCGUUCGGAUCUGCACUUCCAGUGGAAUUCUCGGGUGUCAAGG | -0.888 |

Set 4 — method: RNA Bind-n-Seq; molecule type: RNA; sample: in vitro; concentration: 365 nM; relative to: no-protein control; reading: higher = stronger binding
Target: RNA binding protein fox-1 homolog 2, RRM domain, GST-SBP tag (RBFOX2, Homo sapiens, UniProt O43251-10, residues 100-194)
Setting: natural RNA segment, single round, ends assumed
Target sequence (chain): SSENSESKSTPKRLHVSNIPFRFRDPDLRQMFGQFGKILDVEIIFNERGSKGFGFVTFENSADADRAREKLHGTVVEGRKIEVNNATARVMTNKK
| Oligonucleotide | RBNS enrichment (R) |
| --- | --- |
| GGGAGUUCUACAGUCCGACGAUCACGGACCUCACUGCUACUGCUGCCUCCAUUAACGCUGUGCUCACACAUUGUCUGGGAUUUUAAGGAUGUCAAACUGCUGUAGAUGACUCAAUAAAUGUCUUAUCGUUUUUUGGAAUUCUCGGGUGCCAA | 0.535 |
| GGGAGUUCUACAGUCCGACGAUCAACUCAGCCUCAAAUCUCAACUGUCAGGCCCUACAAAGAAAAUGGAGAGCCUCUUCUGGUGGAUGCUUUGCUCCCUCUGAGCUGCCCAUGCUGGUCUGGCAAACACACCUUGGAAUUCUCGGGUGCCAA | 0.192 |
| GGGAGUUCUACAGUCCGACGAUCUCCCGAGAAGGUGGCUUUGGCUGAAGCCUAUUCCACAGCUCCUUGUUUUUUGAGAGAGACUGAGAGAACCAUAAUCCUUGCCUGCUGAACCCAGCCUGGGCCUGGAUGCUUGGAAUUCUCGGGUGCCAA | 0.32 |
| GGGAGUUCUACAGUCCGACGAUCAAGGGAUAGUAAUACCUACUUGCAGGUUGUUGUCAUCUGAGUUGAGCACUGGUCACAUUGAAGGUGCUGGGUAAGUGGUAGCUCUUGUUGCUUCCCGUUCAGCGUCACAUUGGAAUUCUCGGGUGCCAA | 0.449 |
| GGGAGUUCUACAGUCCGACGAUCUAAAUGAGAGGACAUGAGAUUUGGGAGGGGCCAGGGAGAGAAUGAUAUGGUUUGGCUGUGUCCCCAUCCAAAUAUCACCUUAAAUUGUAGCUCCCAUAAUUGUGGGAGGGUGGAAUUCUCGGGUGCCAA | 2.57 |
| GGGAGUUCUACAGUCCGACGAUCCUAUCCUGUUAAUUUAAUUUUUAAAUGCUUUAUCCAUUUGUGCAAAGGUAAACGCAGAUUGUAUCUUUUUUAAUGGUACGGCAUAAAAAGUAACCCUCAAGUGAAGUGUCUGGAAUUCUCGGGUGCCAA | 0.464 |
| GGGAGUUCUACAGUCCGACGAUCUAAUAAAUGGUUUUGAUUGUUCAAACUAAUUUCUAGCUACCUGAAUAAUUCACAGAUUAUAGCUUAUUUUUAAUUAAUUUAUUUAUUUUGAAACAGUUUCACUGUGUCUGUGGAAUUCUCGGGUGCCAA | 0.426 |
| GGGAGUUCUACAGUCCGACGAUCUUUUCACAAGUAUGGCGGCUUACCACGAGAUAGCUACUGGGUAAGCAAAGCCUGGGACAUUUGCAAUAGCAAGCACCCUCUGUAGUCUCCUGCAGAGCCAUAGCUUCAAUUGGAAUUCUCGGGUGCCAA | 0.272 |
| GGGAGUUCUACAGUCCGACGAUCAAGCAAAGGAUUCCAGGCUCCAGAAAAAAUGAAUGAACUCACCUUGACGUCAAUGCAAUUGAAUCACCGUUGUCAUUCAGCGAGCAACCAAUGUAGGAUUGCCCACAGUUUGGAAUUCUCGGGUGCCAA | 0.215 |

A few entries again (set 3):
| Oligonucleotide | log2 enrichment |
| --- | --- |
| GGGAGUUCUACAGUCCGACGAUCACCAUGCAGGUGGGCAUCUUUGGGAAGUGGGGCAAGAGGGGGAUAGGGAGGGGGGUAACACUUUGGGAACAGGUGGUCCCAGGUCGUUUCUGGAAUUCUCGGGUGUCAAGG | 1.36 |
| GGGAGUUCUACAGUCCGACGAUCCAAGUCCUGUGCUACACAUCGUAUGUACCGAAUCGGAAAAAAAGGAAAGGUUUGGAAAGUAUUAUGUUACGCCGUUCGGAUCUGCACUUCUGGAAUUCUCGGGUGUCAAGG | -2.52 |
| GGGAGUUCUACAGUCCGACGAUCAAGUCCUGUGCUACACAUCGUAUGUACCGAAUCGGGGAAAAAGGGGAGGGGAGGGGAAAGUAUUAUGUUACGCCGUUCGGAUCUGCACUUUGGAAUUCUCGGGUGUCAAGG | 0.595 |
| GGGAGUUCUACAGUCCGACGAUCUCCUGUGCUACACAUCGUAUGUACCGAAUCGGGUUUGGGAAAAAAAGGGUUUUUUUGGGAAAGUAUUAUGUUACGCCGUUCGGAUCUGCAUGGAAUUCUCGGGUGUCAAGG | -1.38 |
